Experimental data collected from several papers.
Protocols differ between the studies behind these lines. “And” joins repeats or separate records; there may be more than shown. Numbers after ± are the reported error.
CSNK2A1: Casein kinase II subunit alpha (CSNK2A1, Homo sapiens, UniProt P68400)
Chain of UniProt P68400 (whole entry, looked up): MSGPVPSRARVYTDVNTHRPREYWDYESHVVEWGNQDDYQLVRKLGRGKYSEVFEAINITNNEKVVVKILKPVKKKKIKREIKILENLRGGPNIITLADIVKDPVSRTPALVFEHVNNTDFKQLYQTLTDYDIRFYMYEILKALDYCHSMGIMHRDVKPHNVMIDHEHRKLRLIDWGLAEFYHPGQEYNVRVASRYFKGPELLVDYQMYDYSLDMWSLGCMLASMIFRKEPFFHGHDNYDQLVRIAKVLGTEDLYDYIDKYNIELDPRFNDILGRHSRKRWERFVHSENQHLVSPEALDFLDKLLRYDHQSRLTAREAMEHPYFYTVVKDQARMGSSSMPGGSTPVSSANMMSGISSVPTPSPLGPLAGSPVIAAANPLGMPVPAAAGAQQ
Chain of UniProt Q86U44 (whole entry, looked up): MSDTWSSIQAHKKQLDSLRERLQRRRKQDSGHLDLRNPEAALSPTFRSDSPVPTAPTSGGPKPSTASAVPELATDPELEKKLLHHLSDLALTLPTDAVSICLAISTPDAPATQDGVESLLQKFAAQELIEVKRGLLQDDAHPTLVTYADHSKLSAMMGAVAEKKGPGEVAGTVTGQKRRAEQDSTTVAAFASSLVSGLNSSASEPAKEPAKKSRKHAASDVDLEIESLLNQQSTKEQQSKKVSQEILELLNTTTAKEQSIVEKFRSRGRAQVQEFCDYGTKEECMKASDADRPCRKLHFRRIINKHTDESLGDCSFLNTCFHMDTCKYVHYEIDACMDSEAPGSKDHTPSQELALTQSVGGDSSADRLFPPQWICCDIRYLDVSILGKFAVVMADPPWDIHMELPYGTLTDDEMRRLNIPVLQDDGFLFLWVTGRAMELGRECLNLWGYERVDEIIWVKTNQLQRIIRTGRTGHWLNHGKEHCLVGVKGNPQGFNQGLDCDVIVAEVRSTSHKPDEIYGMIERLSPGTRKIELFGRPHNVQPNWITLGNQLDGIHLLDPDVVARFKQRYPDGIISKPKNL
Chain of UniProt P30101 (whole entry, looked up): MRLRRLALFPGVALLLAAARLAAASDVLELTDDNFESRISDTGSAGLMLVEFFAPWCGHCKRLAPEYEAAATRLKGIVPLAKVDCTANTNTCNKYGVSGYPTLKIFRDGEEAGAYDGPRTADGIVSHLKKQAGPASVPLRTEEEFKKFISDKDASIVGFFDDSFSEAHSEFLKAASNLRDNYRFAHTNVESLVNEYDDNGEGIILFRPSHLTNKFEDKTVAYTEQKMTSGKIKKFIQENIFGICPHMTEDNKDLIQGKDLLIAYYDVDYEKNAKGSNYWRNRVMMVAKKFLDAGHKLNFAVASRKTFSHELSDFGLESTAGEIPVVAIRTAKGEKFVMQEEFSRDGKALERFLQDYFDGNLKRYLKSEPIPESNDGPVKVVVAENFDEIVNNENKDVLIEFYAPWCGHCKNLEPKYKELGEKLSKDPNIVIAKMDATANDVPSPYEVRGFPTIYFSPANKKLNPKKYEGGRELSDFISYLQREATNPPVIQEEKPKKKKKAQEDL
Chain of UniProt P40261 (whole entry, looked up): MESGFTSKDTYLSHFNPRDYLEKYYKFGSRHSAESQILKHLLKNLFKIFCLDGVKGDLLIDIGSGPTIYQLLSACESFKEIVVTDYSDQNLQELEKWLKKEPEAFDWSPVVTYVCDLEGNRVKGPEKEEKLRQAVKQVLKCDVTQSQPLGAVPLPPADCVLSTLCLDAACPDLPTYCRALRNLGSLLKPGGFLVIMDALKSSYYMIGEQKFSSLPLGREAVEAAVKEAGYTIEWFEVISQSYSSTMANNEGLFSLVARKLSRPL
Chain of UniProt Q9FIP9 (whole entry, looked up): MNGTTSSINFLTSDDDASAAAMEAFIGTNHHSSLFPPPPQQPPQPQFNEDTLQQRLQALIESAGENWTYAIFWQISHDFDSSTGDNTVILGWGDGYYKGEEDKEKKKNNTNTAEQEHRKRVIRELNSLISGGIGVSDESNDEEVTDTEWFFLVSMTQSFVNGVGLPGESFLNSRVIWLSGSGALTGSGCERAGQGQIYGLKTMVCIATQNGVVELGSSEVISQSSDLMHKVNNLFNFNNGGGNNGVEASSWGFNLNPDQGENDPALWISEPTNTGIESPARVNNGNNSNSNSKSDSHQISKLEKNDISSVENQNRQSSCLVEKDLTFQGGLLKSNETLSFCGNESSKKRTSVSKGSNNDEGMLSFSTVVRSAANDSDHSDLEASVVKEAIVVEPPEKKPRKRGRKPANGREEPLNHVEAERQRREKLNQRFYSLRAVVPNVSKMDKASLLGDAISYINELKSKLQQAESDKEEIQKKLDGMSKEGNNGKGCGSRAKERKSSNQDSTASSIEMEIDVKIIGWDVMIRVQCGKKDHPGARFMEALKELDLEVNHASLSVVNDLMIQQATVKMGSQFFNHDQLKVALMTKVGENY
Chain of UniProt O15294 (whole entry, looked up): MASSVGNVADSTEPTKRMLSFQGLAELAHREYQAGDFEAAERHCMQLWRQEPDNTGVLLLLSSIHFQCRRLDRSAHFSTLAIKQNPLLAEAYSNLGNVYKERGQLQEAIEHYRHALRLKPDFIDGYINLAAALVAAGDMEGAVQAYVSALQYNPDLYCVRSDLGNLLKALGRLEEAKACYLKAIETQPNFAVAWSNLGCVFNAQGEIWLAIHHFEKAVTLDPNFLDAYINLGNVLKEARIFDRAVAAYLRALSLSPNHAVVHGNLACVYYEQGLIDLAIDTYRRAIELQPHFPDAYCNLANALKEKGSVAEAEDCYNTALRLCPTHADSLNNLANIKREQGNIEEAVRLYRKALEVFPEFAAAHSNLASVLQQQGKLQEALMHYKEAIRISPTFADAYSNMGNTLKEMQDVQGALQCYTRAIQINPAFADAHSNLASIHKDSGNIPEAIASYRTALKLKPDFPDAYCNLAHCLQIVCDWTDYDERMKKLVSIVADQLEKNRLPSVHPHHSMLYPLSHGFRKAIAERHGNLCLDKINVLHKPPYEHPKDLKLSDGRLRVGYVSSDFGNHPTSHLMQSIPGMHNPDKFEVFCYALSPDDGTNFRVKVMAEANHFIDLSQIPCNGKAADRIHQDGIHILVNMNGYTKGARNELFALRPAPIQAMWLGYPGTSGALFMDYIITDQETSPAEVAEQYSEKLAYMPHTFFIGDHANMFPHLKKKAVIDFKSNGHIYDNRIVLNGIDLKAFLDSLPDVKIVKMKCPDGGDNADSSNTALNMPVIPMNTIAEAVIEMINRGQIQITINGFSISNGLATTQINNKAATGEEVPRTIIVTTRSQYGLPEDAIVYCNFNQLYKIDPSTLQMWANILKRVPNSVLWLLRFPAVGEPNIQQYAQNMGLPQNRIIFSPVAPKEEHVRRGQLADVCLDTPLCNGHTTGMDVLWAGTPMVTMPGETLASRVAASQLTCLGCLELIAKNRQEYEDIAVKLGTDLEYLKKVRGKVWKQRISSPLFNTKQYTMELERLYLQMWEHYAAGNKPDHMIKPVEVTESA
Chain of UniProt P33261 (whole entry, looked up): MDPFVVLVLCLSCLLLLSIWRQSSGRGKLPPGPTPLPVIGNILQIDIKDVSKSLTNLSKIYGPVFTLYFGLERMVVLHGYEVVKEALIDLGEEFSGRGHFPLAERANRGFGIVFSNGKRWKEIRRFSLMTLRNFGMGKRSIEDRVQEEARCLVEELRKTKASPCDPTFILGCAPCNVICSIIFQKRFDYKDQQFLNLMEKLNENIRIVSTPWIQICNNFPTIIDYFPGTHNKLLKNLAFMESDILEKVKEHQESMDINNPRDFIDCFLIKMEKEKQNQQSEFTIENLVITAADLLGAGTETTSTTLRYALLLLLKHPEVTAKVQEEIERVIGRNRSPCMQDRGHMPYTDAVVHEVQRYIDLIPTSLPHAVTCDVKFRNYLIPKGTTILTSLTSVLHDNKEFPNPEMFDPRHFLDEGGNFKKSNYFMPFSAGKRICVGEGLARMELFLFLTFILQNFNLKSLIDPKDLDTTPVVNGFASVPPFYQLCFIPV
Chain of UniProt P35235 (whole entry, looked up): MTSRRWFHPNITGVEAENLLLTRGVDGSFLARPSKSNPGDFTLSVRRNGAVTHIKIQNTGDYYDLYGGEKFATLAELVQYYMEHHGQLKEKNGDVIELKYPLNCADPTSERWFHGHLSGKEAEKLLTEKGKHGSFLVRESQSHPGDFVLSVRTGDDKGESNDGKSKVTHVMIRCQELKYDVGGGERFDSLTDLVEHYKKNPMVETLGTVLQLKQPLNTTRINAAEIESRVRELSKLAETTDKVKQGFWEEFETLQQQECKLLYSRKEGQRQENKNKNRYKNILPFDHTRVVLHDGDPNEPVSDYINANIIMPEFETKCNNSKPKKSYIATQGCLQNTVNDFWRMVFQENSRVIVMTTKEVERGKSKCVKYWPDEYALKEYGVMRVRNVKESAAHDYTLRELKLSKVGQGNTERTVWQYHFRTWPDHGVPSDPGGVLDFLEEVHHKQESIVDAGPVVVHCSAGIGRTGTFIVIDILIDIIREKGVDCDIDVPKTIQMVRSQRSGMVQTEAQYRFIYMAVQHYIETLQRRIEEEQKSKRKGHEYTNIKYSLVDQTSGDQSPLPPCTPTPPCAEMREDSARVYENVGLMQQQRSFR
Chain of UniProt P06733 (whole entry, looked up): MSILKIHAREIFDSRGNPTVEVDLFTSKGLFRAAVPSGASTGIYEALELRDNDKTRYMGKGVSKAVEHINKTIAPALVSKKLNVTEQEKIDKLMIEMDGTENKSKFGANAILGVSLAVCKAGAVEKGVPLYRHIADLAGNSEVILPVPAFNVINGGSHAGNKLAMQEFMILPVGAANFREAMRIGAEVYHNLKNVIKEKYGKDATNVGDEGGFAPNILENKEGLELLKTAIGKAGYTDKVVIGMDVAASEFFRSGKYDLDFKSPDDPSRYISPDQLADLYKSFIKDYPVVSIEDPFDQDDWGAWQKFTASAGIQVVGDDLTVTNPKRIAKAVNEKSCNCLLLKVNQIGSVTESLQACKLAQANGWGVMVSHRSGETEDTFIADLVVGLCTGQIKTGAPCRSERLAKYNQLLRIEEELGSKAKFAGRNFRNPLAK

Compound	target	test	system	conditions	IC50
CC[C@H](C)[C@@H]1NC(=O)[C@H](Cc2ccccc2)NC(=O)[C@H]([C@@H](C)O)NC(=O)[C@H]([C@@H](C)CC)NC(=O)[C@H](CCCNC(=N)N)NC(=O)[C@@H](Cc2ccc(O)cc2)NC(=O)CSC[C@@H](C(=O)NCC(N)=O)NC(=O)[C@H](Cc2ccccc2)NC(=O)[C@H](C(C)C)NC(=O)[C@H]([C@@H](C)CC)NC(=O)[C@H](CC(C)C)NC(=O)[C@H]([C@@H](C)CC)NC(=O)[C@H](CCC(N)=O)NC(=O)[C@H](CC(=O)O)NC(=O)[C@H](CC(N)=O)NC(=O)[C@H](CC(C)C)NC(=O)[C@H](CCCNC(=N)N)NC1=O	Nicotinamide N-methyltransferase (NNMT, Homo sapiens, UniProt P40261)	enzyme activity, inhibitor, mass spectrometry			437 nM
CC[C@H](C)[C@H](NC(=O)[C@H](C)NC(=O)[C@H](Cc1ccc(O)cc1)NC(=O)[C@H](CCC(N)=O)NC(=O)[C@@H](NC(=O)[C@H](CC(C)C)NC(=O)[C@H](Cc1ccc(O)cc1)NC(=O)[C@@H]1CCCN1)[C@@H](C)O)C(=O)O	H-2 class I histocompatibility antigen, K-D alpha chain, 29 (H2-K1, Mus musculus, UniProt P01902)	binding, competitor, radioligand competition		purified MHC, mutant peptide, with: radiolabeled standard peptide	> 70000 nM
COc1ccccc1[C@@H](NS(=O)(=O)c1cc2ccc(O)nc2cc1Cl)C(=O)N(CC(=O)NCCn1cc(COCCOCCOCCOCC(=O)N[C@H](C(=O)N2C[C@H](O)C[C@H]2C(=O)NCc2ccc(-c3scnc3C)cc2)C(C)(C)C)nn1)Cc1cccs1	UDP-N-acetylglucosamine--peptide N-acetylglucosaminyltransferase 110 kDa subunit (OGT, Homo sapiens, UniProt O15294)	enzyme activity, inhibitor, fluorescence			270 nM
CC(C)C(=O)Nc1ccccc1-c1nn[nH]n1	Metallo-beta-lactamase type 2 (Serratia marcescens, UniProt P52699)	inhibitor		10 min preincubation, with: FC5 substrate	> 100000 nM
O=C(CCCc1ccccc1)NC1CCOC1=O (centres unmarked)	Transcriptional activator protein LasR (lasR, Pseudomonas aeruginosa, UniProt P25084)	reporter gene, antagonist	Escherichia coli, JLD271 with LasR plasmid	with: OdDHL 2 nM	1000 nM
Cc1ccc(S(=O)(=O)N(CCC(=O)N(C)C)CC(=O)[C@H](C)NC(=O)OCc2ccccc2)cc1	Genome polyprotein, 3C protease (Human hepatitis A virus genotype IB, UniProt P08617, C1543S)				~75000 nM and 75000 nM
c1cc2c(s1)CCOC21CCN(Cc2ccc3c(c2)OCCO3)CC1	Cytochrome P450 2C19 (CYP2C19, Homo sapiens, UniProt P33261)	inhibitor			20000 nM
CC(C)C(=O)Nc1cccc(-c2nn[nH]n2)c1	Metallo-beta-lactamase type 2 (blaNDM-1, Klebsiella pneumoniae, UniProt C7C422)	enzyme activity, inhibitor, fluorescence		with preincubation	> 100000 nM
CN1C(=O)[C@H](Cc2ccccc2)N(C)C(=O)[C@@H]2[C@H]1CCN2Cc1cc(Cl)cc(Cl)c1	NKG2-D type II integral membrane protein, with MICA (KLRK1, Homo sapiens, UniProt P26718)	ligand binding, inhibitor, TR-FRET	HEK293 expressing NKG2D and DAP10	with: MICA-Alexa647	10200 nM
Nc1ncnc2c1ncn2[C@@H]1O[C@H](CSCCNC(=O)NCC2CCCCC2)[C@@H](O)[C@H]1O	N6-adenosine-methyltransferase catalytic subunit, with METTL14 (METTL3, Homo sapiens, UniProt Q86U44)	enzyme activity, inhibitor, radiometric		METTL3-METTL14 complex	> 50000 nM
CC(C)(O)c1ccccc1CC[C@H](c1cccc(/C=C/c2ccc3ccc(Cl)cc3n2)c1)[S+]([O-])CC1(CC(=O)O)CC1 (some centres unmarked)	Cytochrome P450 2C8 (CYP2C8, Homo sapiens, UniProt P10632)	inhibitor	human liver microsomes	pH 7.4, with: paclitaxel	50 nM
CC(C)C[C@H](NC(=O)[C@H](CCCNC(=N)N)NC(=O)[C@H](CCC(=O)O)NC(=O)[C@H](CCCCN)NC(=O)[C@H](CCCNC(=N)N)NC(=O)[C@H](CCCCN)NC(=O)[C@H](CCC(=O)O)NC(=O)[C@H](CC(C)C)NC(=O)[C@H](Cc1ccccc1)NC(=O)[C@H](CCCNC(=N)N)NC(=O)[C@H](C)NC(=O)[C@H](CC(C)C)NC(=O)[C@H](CO)NC(=O)[C@]1(C)CCCC=CCCC[C@](C)(NC(=O)[C@@H]2CCCN2C(=O)[C@@H](NC(=O)[C@H](CO)NC(=O)c2ccc3c(c2)C(=O)OC32c3ccc(N(C)C)cc3Oc3cc(N(C)C)ccc32)C(C)C)C(=O)N[C@@H](C)C(=O)N[C@@H](CCCNC(=N)N)C(=O)N[C@@H](CCCCN)C(=O)N1)C(=O)O	Transcription factor MYC3 (MYC3, Arabidopsis thaliana, UniProt Q9FIP9)	JAZ9 peptide binding, inhibitor, AlphaScreen		pH 8.0, 25 °C, with: 50 nM biotin-JAZ9 peptide	6000 ± 1600 nM
N#C[C@@H]1CCCN1C(=O)[C@@H](N)Cc1cccc2ccccc12	Serine hydrolase RBBP9 (Homo sapiens, UniProt O75884)	enzyme activity, inhibitor			880 nM
CCC(=O)Nc1cc(Nc2cc(NC3CC3)n3ncc(C#N)c3n2)ccc1N(C)CCNC	CSNK2A1	target engagement in cells, BRET			6.31 nM
Cc1cccc2c1NC(=O)C2=Cc1ccc(-c2cccc(C(=O)N3CCCN(C)CC3)c2)o1 (mixture of isomers)	CSNK2A1	enzyme activity, inhibitor			> 10000 nM
O=C(COc1ccc2c(c1O)C(=O)c1ccccc1C2=O)c1ccccc1	Gag-Pol polyprotein, reverse transcriptase (gag-pol, Human immunodeficiency virus 1, UniProt P03366, Y780C)	enzyme activity		Y181C reverse transcriptase	> 100000 nM
O=C(Oc1cncc(Cl)c1)c1cccs1	Genome polyprotein, 3C protease (Human hepatitis A virus genotype IB, UniProt P08617)	enzyme activity, inhibitor			500 nM and 540 nM
CC[C@H](C)[C@H](NC(=O)[C@H](CO)NC(=O)[C@H](Cc1ccc(O)cc1)NC(=O)[C@H](CC(=O)O)NC(=O)[C@H](CO)NC(=O)[C@@H](NC(=O)[C@H](Cc1ccccc1)NC(=O)[C@@H](NC(=O)CNC(=O)[C@@H]1CCCN1C(=O)[C@H](C)NC(=O)[C@@H](N)Cc1ccc(O)cc1)[C@@H](C)O)[C@@H](C)CC)C(=O)N[C@@H](C)C(=O)N[C@@H](CCSC)C(=O)N[C@@H](CC(=O)O)C(=O)N[C@@H](CCCCN)C(=O)N[C@H](C(=O)N[C@@H](CCCNC(=N)N)C(=O)N[C@@H](CCC(N)=O)C(=O)N[C@@H](CCC(N)=O)C(=O)N[C@@H](CC(=O)O)C(=O)N[C@@H](Cc1ccccc1)C(=O)N[C@H](C(=O)N[C@@H](CC(N)=O)C(=O)N[C@@H](Cc1c[nH]c2ccccc12)C(=O)N[C@@H](CC(C)C)C(=O)N[C@@H](CC(C)C)C(=O)N[C@@H](C)C(=O)N[C@@H](CCC(N)=O)C(=O)N[C@@H](CCCNC(=N)N)C(=O)NCC(=O)N[C@@H](CCCCN)C(=O)N[C@@H](CCCCN)C(=O)N[C@@H](CO)C(=O)N[C@@H](CC(=O)O)C(=O)N[C@@H](Cc1c[nH]c2ccccc12)C(=O)N[C@@H](CCCCN)C(=O)N[C@@H](Cc1c[nH]cn1)C(=O)N[C@@H](CC(N)=O)C(=O)N[C@H](C(=O)N[C@H](C(=O)N[C@@H](CCC(N)=O)C(=O)O)[C@@H](C)O)[C@@H](C)CC)C(C)C)[C@@H](C)CC	Gastric inhibitory polypeptide receptor (Rattus norvegicus, UniProt P43219)	ligand displacement in cells, radioligand			7.94 nM
O=C(O)c1ccccc1-c1c2ccc(=O)c([As]3SCCS3)c-2oc2c([As]3SCCS3)c(O)ccc12	Tyrosine-protein phosphatase non-receptor type 11 (Ptpn11, Mus musculus, UniProt P35235)	enzyme activity, inhibitor, absorbance		pH 7, with preincubation	74 nM
COC(=O)C1CN1S(=O)(=O)c1ccc(Cl)cc1 (centres unmarked)	Protein disulfide-isomerase A3 (PDIA3, Homo sapiens, UniProt P30101)	enzyme activity, inhibitor, absorbance		pH 7.6	> 200000 nM
CSc1nc2[nH]nc([N+](=O)[O-])c(=O)n2n1	ATP-dependent translocase ABCB1 (ABCB1, Homo sapiens, UniProt P08183)	transport, inhibitor			72000 nM
O=C1C(P(=O)(O)O)CC(O)N1O (centres unmarked)	Alpha-enolase (ENO1, Homo sapiens, UniProt P06733)	enzyme activity, inhibitor			14 nM
CNC(=O)C1CCN(c2ccccc2NC(=O)c2ccc(-c3cc(O)ccc3C)c(C)n2)CC1	Tyrosine-protein kinase Yes (YES1, Homo sapiens, UniProt P07947)	target engagement in cells, BRET			6350 nM

Excerpt of the above:
Compound	target	test	system	conditions	IC50
CN1C(=O)[C@H](Cc2ccccc2)N(C)C(=O)[C@@H]2[C@H]1CCN2Cc1cc(Cl)cc(Cl)c1	NKG2-D type II integral membrane protein, with MICA (KLRK1, Homo sapiens, UniProt P26718)	ligand binding, inhibitor, TR-FRET	HEK293 expressing NKG2D and DAP10	with: MICA-Alexa647	10200 nM
Cc1cccc2c1NC(=O)C2=Cc1ccc(-c2cccc(C(=O)N3CCCN(C)CC3)c2)o1 (mixture of isomers)	CSNK2A1	enzyme activity, inhibitor			> 10000 nM
CC(C)C(=O)Nc1cccc(-c2nn[nH]n2)c1	Metallo-beta-lactamase type 2 (blaNDM-1, Klebsiella pneumoniae, UniProt C7C422)	enzyme activity, inhibitor, fluorescence		with preincubation	> 100000 nM
